# Experimental data of several laboratories.
# Lines come from different studies, so protocols differ. ± marks the error that the study gave.
Compound,cell line,effect on,method,time,notes,together with,EC50 [µM]
C=C(NC(=O)c1csc(-c2ccc(NC(=O)CCCCCBr)cc2)n1)C(=O)NC(=C)C(=O)OC,SCC-90,cell viability,,,,,2.9
COc1ccc(NC(=O)c2ccc3[nH]c(-c4ccc(N(C)C)cc4)nc3c2)cn1,ZR-75-1,cell growth,CellTiter-Glo,,,,9.51
[Cl-].[Cl-].[Ru+2].c1ccc(-c2ccccn2)nc1.c1ccc(-c2ccccn2)nc1.c1ccc2cc3nc4c5cccnc5c5ncccc5c4nc3cc2c1,SK-MEL-28,photocytotoxicity,,,"visible light 400-700 nm, 100 J/cm2, oxygen 18.5%",,0.083 ± 0.001
Cc1cccc(-c2cccc(C)n2)n1.Cc1cccc(-c2cccc(C)n2)n1.F[P-](F)(F)(F)(F)F.F[P-](F)(F)(F)(F)F.[Ru+2].c1ccc(-c2nc3c4cccnc4c4ncccc4c3[nH]2)cc1,SK-MEL-28,cell viability,,,normoxia,"green light 523 nm, 100 J/cm2",27 ± 1.1
O=c1c(-c2cnn(-c3ccccc3)c2)c(C(F)(F)F)oc2c(O)c(O)ccc12,ML-2,apoptosis,annexin V flow cytometry,,,,~14
Cc1cccc(-c2cccc(C)n2)n1.Cc1cccc(-c2cccc(C)n2)n1.F[P-](F)(F)(F)(F)F.F[P-](F)(F)(F)(F)F.[Ru+2].c1ccc2c(-c3nc4c5cccnc5c5ncccc5c4[nH]3)c3ccccc3cc2c1,SK-MEL-28,cell viability,,,1% O2,"green light 523 nm, 100 J/cm2",26.4 ± 1
[Cl-].[Cl-].[Ru+2].c1cnc2c(c1)ccc1cccnc12.c1cnc2c(c1)ccc1cccnc12.c1csc(-c2ccc(-c3nc4c5cccnc5c5ncccc5c4[nH]3)s2)c1,SK-MEL-28,,,,normoxia,"visible light 400-700 nm, 100 J/cm2",~0.6
C=C(NC(=O)c1csc(-c2cccnc2)n1)C(=O)NC(=C)C(=O)OC,C4-2,cell growth or viability,,,,,27.8
CCCCCCCCCCCCNC(=S)NCCCC[C@H](NS(C)(=O)=O)C(=O)N[C@H](C)C(=O)N[C@@H](CCCNC(=N)N)C(N)=O,Jurkat,cell growth or viability,MTT,72 h,,,3.24 to 6.12
Cc1cccc(-c2cccc(C)n2)n1.Cc1cccc(-c2cccc(C)n2)n1.F[P-](F)(F)(F)(F)F.F[P-](F)(F)(F)(F)F.[Ru+2].c1cc2ccc3ccc(-c4nc5c6cccnc6c6ncccc6c5[nH]4)c4ccc(c1)c2c34,SK-MEL-28,cell viability,,,1% O2,"green light 523 nm, 100 J/cm2",47.9 ± 1.5
COC(=O)[C@H](C)NC(=O)[C@H](C)NC(=O)c1csc(-c2cccnc2)n1,C4-2,cell growth or viability,,,,,> 30

# A few entries again:
Compound,cell line,effect on,method,time,notes,together with,EC50 [µM]
Cc1cccc(-c2cccc(C)n2)n1.Cc1cccc(-c2cccc(C)n2)n1.F[P-](F)(F)(F)(F)F.F[P-](F)(F)(F)(F)F.[Ru+2].c1ccc2c(-c3nc4c5cccnc5c5ncccc5c4[nH]3)c3ccccc3cc2c1,SK-MEL-28,cell viability,,,1% O2,"green light 523 nm, 100 J/cm2",26.4 ± 1
[Cl-].[Cl-].[Ru+2].c1cnc2c(c1)ccc1cccnc12.c1cnc2c(c1)ccc1cccnc12.c1csc(-c2ccc(-c3nc4c5cccnc5c5ncccc5c4[nH]3)s2)c1,SK-MEL-28,,,,normoxia,"visible light 400-700 nm, 100 J/cm2",~0.6
